Published values of several laboratories.
Numbers after ± are the reported error.
NR3C1: Glucocorticoid receptor (NR3C1, Homo sapiens, UniProt P04150)

Amino acid sequences for entries named in this document (tags omitted).
UniProt P04150, whole entry: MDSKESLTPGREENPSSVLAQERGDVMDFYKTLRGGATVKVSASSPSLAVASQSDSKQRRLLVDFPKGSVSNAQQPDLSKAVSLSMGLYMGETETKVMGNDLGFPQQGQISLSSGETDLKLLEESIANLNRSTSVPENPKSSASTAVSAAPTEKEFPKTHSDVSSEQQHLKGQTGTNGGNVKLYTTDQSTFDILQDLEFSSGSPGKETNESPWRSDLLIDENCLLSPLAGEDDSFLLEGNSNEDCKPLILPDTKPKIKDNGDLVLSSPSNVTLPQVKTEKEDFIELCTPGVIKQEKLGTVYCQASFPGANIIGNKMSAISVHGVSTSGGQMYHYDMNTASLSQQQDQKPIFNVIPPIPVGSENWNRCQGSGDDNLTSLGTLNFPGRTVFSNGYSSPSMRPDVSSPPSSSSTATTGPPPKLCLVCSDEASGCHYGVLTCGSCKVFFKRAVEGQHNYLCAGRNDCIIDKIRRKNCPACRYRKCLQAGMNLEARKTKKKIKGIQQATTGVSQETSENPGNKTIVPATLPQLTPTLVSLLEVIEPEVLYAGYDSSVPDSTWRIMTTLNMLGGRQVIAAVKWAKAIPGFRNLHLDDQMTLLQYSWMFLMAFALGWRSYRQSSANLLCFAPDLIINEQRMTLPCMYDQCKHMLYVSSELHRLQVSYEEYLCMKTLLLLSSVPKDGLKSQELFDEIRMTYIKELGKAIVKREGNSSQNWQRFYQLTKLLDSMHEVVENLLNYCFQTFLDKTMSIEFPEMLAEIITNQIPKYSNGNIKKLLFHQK
UniProt Q92831, whole entry: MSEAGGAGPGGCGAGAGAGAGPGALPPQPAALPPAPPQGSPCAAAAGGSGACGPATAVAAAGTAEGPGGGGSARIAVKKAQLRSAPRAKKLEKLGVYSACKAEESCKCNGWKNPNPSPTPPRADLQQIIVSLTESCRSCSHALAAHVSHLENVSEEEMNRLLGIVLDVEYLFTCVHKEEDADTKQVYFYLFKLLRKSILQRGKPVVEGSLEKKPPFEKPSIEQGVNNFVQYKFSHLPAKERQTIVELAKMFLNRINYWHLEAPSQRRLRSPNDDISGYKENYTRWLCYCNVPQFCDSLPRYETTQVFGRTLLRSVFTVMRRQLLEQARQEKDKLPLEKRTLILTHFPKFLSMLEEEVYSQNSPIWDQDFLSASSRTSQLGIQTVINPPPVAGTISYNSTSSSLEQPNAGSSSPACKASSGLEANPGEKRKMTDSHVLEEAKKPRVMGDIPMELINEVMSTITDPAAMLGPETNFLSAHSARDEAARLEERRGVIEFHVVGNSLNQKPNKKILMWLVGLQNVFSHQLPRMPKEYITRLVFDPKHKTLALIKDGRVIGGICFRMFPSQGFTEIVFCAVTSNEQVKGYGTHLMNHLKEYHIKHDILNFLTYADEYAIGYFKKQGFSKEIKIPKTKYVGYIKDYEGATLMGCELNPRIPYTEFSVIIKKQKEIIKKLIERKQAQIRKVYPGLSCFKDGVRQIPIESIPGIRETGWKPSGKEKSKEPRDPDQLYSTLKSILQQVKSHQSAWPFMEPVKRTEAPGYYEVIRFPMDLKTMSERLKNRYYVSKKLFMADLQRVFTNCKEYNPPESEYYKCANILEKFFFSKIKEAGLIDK
UniProt Q9NSY1, whole entry: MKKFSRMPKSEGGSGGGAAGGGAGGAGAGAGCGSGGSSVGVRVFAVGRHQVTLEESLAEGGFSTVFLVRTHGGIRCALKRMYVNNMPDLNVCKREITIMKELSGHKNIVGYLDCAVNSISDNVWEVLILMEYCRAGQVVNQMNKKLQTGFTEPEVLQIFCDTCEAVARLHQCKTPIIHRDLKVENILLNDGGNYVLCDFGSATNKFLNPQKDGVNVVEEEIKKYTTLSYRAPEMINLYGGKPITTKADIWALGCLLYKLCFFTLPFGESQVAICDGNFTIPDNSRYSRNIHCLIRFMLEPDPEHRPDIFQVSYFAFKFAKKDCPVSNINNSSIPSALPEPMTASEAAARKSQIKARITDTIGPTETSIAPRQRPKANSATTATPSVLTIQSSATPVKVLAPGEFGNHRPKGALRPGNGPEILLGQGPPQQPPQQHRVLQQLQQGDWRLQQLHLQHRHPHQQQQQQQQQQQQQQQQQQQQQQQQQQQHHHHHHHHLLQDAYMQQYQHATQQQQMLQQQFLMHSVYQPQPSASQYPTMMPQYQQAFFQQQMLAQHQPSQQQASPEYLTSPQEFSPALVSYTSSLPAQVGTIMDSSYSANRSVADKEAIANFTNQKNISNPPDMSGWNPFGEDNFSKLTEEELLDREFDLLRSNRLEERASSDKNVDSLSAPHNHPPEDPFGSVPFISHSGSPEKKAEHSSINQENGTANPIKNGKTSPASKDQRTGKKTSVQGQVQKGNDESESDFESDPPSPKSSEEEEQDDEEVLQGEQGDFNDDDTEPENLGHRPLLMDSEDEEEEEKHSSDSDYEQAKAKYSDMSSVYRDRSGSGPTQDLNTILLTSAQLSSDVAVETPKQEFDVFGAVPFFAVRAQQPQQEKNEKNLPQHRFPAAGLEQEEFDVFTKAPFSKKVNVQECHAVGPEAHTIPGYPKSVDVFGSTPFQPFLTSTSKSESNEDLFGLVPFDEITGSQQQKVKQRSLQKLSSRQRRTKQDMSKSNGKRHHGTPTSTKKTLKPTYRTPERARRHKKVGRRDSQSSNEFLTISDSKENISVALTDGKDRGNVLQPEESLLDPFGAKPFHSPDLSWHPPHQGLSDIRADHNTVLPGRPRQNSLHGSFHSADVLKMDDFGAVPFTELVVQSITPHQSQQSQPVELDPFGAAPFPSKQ
UniProt P10636, whole entry, looked up: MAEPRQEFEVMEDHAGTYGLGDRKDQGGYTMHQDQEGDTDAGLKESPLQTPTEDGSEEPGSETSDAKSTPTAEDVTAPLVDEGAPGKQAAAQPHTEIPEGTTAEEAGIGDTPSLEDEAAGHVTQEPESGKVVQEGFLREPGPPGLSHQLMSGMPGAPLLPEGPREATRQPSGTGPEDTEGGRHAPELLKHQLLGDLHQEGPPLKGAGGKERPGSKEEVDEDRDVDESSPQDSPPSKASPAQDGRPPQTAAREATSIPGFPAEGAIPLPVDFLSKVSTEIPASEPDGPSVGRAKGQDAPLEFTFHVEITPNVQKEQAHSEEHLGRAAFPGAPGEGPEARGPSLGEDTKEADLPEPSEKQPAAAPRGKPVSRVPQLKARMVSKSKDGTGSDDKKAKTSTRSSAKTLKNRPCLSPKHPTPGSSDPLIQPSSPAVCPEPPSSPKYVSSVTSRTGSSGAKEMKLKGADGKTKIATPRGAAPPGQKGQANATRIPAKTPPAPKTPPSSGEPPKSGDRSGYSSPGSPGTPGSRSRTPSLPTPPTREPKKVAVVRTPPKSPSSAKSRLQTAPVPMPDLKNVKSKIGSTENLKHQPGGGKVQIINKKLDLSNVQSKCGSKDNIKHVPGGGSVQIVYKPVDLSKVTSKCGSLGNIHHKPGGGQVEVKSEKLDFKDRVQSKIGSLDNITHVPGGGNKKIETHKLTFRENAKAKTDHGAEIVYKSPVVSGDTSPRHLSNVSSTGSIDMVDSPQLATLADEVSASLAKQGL

COc1cc(CC(=O)NCC(NC(=O)C(CCCNC(=O)c2cccc(I)c2)NC(=O)C(Cc2ccc(C(F)(F)P(=O)(O)O)cc2)NC(=O)c2ccc(C)c(Br)c2)C(N)=O)ccc1O (stereo not shown)  Akt Ser473 phosphorylation (primary mouse hepatocytes; Western blot; 100 nM, with: insulin 5 nM, 5 min; baseline: insulin alone): 3.1 fold
Cc1cccc(NC(=O)c2nn(Cc3cnc[nH]3)c3c2CN(C(=O)c2ccc[nH]2)CC3)c1  G1-phase cells (IDH1 R132G AML cells; Hoechst/Pyronin Y staining; 3 µM, 7 days): 25.3 ± 2.5%
CCN1CCN(Cc2ccc(NC(=O)c3ccc(C)c(Oc4ncnc5cc(OC)c(OC)cc45)c3)cc2C(F)(F)F)CC1  IC50 (FLT3-ITD kinase domain human; enzyme activity, Z'-LYTE; with: ATP at Km): 440 nM
Cc1c(O)cc2c(c1C)O[C@](C)(CCCC(C)C)CC2  cholesterol reduction (LNCaP; lipid raft fractions; concentration not given): ≤ 30%
CC1=C(CC[C@H](C)CO)O[C@@H]2C[C@@H]3[C@H]4CC[C@H]5C[C@@H](O)CC[C@]5(C)[C@@H]4CC(=O)[C@@]3(C)[C@@H]12  EC50 (NR3C1; nuclear translocation, agonist, enzyme fragment complementation): > 9000 nM
c1nn(C2CCOCC2)cc1Nc1ncc2nnn(-c3ccc4cn[nH]c4c3)c2n1  protein level (HuR; western blot; cytoplasm; concentration not given; baseline: untreated): decreased
O=C(Nc1cccnn1)N1CC(Oc2ccc(-c3ccccc3F)cn2)C1  Emax (Emax model of Ctrough concentration-response, measured: plasma LEA; human, plasma; oral, repeated daily dosing): ~4 ng/mL
Cc1cc(C)c(CNC(=O)c2cc(-c3ccc(N4CCN(CCNC(=O)CC56CC7CC(CC(C7)C5)C6)CC4)nc3)cc3c2cnn3C(C)C)c(=O)[nH]1  inhibition (sigma 2 receptor; radioligand binding; 10 µM): 59%
CC[C@@H]1C(=O)N(C)c2cnc(Nc3ccc(C(=O)NC4CCN(C)CC4)cc3OC)nc2N1C1CCCC1  delta Tm (Histone acetyltransferase KAT2B (KAT2B, Homo sapiens, UniProt Q92831); 10 µM): -0.12 ± 0.3 °C
CC(C)c1cc2c(N3CCN(C4=NCC(C)(C)S4)CC3)ncnc2s1  GI50 (MLL-AF9 transduced mouse BMC; cell growth, MTT): ~5000 nM
COC(=O)CC[C@@H](C)[C@@H]1CC[C@@H]2[C@@H]3CC[C@H]4C[C@@H](O)CC[C@@]4(C)[C@@H]3CC[C@]21C  EC50 (NR3C1; nuclear translocation, agonist, enzyme fragment complementation): > 9000 nM
Cc1ccc([C@H](CC(=O)O)NC(=O)Nc2c(O)c(C)cn(Cc3ccccc3Cl)c2=O)cc1  leukemic cells (measured: hCD45+ hCD19+; LAX7R xenograft, NSG mouse, bone marrow and spleen; intraperitoneal, 60 mg/kg, 8 h): no effect
CCCCCCCC(=O)OCC(COP(=O)(O)OC1C(O)C(O)C(OP(=O)(O)O)C(OP(=O)(O)O)C1O)OC(=O)CCCCCCC (stereo not shown)  Kd (PLCδ1 PH-ASAP1 chimera; membrane binding, sedimentation; LUVs without PtdSer): 960 ± 150 nM
Fc1cccc(-n2cnc3c(NCc4nc5cc(Cl)ccc5[nH]4)nc(N4CCNCC4)nc32)c1  remaining binding (BMP-2-inducible protein kinase (BMP2K, Homo sapiens, UniProt Q9NSY1); KINOMEscan competition binding; 10 µM; baseline: control): 68%
Nc1c(C(=O)Nc2c(F)cc(F)cc2Br)sc2nc3c(cc12)CCC3  GSH level (H1299; concentration not given, 12 h): decreased
Fc1cc(-c2ccc3c(n2)[nH]c2ccncc23)ccn1 [isotope labelled]  specific binding (Microtubule-associated protein tau, paired helical filaments (MAPT, Homo sapiens, UniProt P10636); radioligand binding; PHF tau brain homogenate; 6.91 nM; higher = more binding): 6 a.u.

For quick reference, copied from above:
Cc1cc(C)c(CNC(=O)c2cc(-c3ccc(N4CCN(CCNC(=O)CC56CC7CC(CC(C7)C5)C6)CC4)nc3)cc3c2cnn3C(C)C)c(=O)[nH]1  inhibition (sigma 2 receptor; radioligand binding; 10 µM): 59%
